Experimental data of several laboratories.
Protocols differ between the studies behind these lines. Numbers after ± are the reported error.

SMILES | test | system | conditions | scale | endpoint | result
O=c1c(-c2ccc(O)cc2)coc2cc(O)ccc12 |  | human, urine | oral, dose not given, 5 h |  | concentration | 190 ng/mL
CO/N=C1\C[C@]2(C[C@@H]3C[C@@H](C/C=C(\C)C[C@@H](C)/C=C/C=C4\CO[C@@H]5[C@H](O)C(C)=C[C@@H](C(=O)O3)[C@]45O)O2)O[C@H](/C(C)=C/C(C)C)[C@H]1C |  | lamb, jejunum mucosa | intraruminal, 0.2 mg/kg, 1 day |  | concentration | 134 ± 41.7 ng/g
O=C(O)CCS(=O)(=O)O |  | Alzheimer's disease patients, CSF | oral, 150 mg tramiprosate twice daily, week 78 |  | concentration | 22.3 ng/mL
NC(N)=NCCC[C@H](NC(=O)[C@H](Cc1ccccc1)NC(=O)[C@@H]1CCCN1C(=O)[C@H](CO)NC(=O)[C@H](Cc1ccccc1)NC(=O)CNC(=O)[C@@H]1CCCN1C(=O)[C@@H]1CCCN1C(=O)[C@@H](N)CCCN=C(N)N)C(=O)O | LC-MS/MS | human serum, gel separator tube | concentration not given, 4 h, room temperature | relative to: initial concentration | concentration change | -64.3 ± 18%
COC(=O)N[C@H](C(=O)N[C@@H](Cc1ccccc1)[C@@H](O)CN(Cc1ccc(-c2ccccn2)cc1)NC(=O)[C@@H](NC(=O)OC)C(C)(C)C)C(C)(C)C |  | Macaca nemestrina, lymph node mononuclear cells | subcutaneous, dose not given, 192 h, free drug combination |  | concentration | 30 nM
CS(=O)(=O)n1cc2c(n1)CN([C@H]1CO[C@H](c3cc(F)ccc3F)[C@@H](N)C1)C2 |  | healthy Japanese men, plasma | oral, 10 mg single dose, fed, geometric mean |  | concentration at 168 h | 9.16 nM
COc1ccc(-n2nc(C(N)=O)c3c2C(=O)N(c2ccc(N4CCCCC4=O)cc2)CC3)cc1 |  | healthy Chinese subjects | oral, 10 mg twice daily, 12 h, day 9 |  | concentration | 121 ng/mL
C[C@@H]1O[C@@H](OC[C@H]2O[C@@H](Oc3c(-c4ccc(O)c(O)c4)oc4cc(O)cc(O)c4c3=O)[C@H](O)[C@@H](O)[C@@H]2O)[C@H](O)[C@H](O)[C@H]1O |  | human, urine | oral, dose not given, 5 h |  | concentration | 790 ng/mL

For quick reference, copied from above:
SMILES | test | system | conditions | scale | endpoint | result
CO/N=C1\C[C@]2(C[C@@H]3C[C@@H](C/C=C(\C)C[C@@H](C)/C=C/C=C4\CO[C@@H]5[C@H](O)C(C)=C[C@@H](C(=O)O3)[C@]45O)O2)O[C@H](/C(C)=C/C(C)C)[C@H]1C |  | lamb, jejunum mucosa | intraruminal, 0.2 mg/kg, 1 day |  | concentration | 134 ± 41.7 ng/g
